Experimental data from different studies.
Protocols differ between the studies behind these lines. Several values in a cell are separate wells, animals, samples, runs or records.

Structure (SMILES) = COc1cccc(NC(=O)Nc2ccc(Oc3nc4ccccc4n4cnnc34)cc2)c1; target or system = WI-38; read-out = cell growth or viability; technique = MTT; tested at = 1.56 µM; time = 24 h; endpoint = viability; result = 100%
Structure (SMILES) = CCCCC(=O)Nc1ccc(-c2ccc3ncn(CCC)c(=O)c3c2)cn1; target or system = Receptor-type tyrosine-protein kinase FLT3 (FLT3, Homo sapiens, UniProt P36888, R834Q); read-out = binding; technique = competition with immobilised ligand; tested at = 0.5 µM; endpoint = remaining binding; result = 100%
Structure (SMILES) = COc1cccc2c1C(=O)c1c(O)c3c(c(O)c1C2=O)C[C@@](O)(C(=O)CO)C[C@@H]3O[C@H]1C[C@H](N)[C@H](O)[C@H](C)O1; target or system = K562; read-out = cell growth or viability; technique = MTT; tested at = 6.25 µg/mL; endpoint = viability; result = 76.1%
Structure (SMILES) = CCOC(=O)C(C(C)=O)=C1Sc2nc3ccc(S(=O)(=O)N4CCCC4)cc3nc2S1; target or system = WI-38; read-out = cell growth or viability; technique = MTT; tested at = 100 µM; time = 24 h; endpoint = viability; result = 36.1%
Structure (SMILES) = COc1cc(N2CCC(N3CCN(C)CC3)CC2)ccc1Nc1ncc(Cl)c(Nc2ccccc2P(C)(C)=O)n1; target or system = Ba/F3 EML4-ALK; read-out = cell growth or viability; technique = CCK-8; tested at = 1 µM; time = 24 h; endpoint = viability; result = 5% and 4%
Structure (SMILES) = O=C1CCCCC1=C1Sc2nc3ccc(S(=O)(=O)N4CCCC4)cc3nc2S1; target or system = WI-38; read-out = cell growth or viability; technique = MTT; tested at = 1.56 µM; time = 24 h; endpoint = viability; result = 100%
Structure (SMILES) = CC(=O)c1nn(-c2ccc(C)cc2)/c(=N/N=C(\C)c2ccc(NC(=O)c3ccccc3)cc2)s1; target or system = WI-38; read-out = cell growth or viability; technique = MTS; tested at = 2.5 µM; time = 24 h; endpoint = viability; result = 3.48%
Structure (SMILES) = COc1cccc2c1C(=O)c1c(O)c3c(c(O)c1C2=O)C[C@@](O)(C(=O)CO)C[C@@H]3O[C@H]1C[C@H](N)[C@H](O)[C@H](C)O1; target or system = WI-38; read-out = cell growth or viability; technique = MTT; tested at = 50 µM; time = 24 h; endpoint = viability; result = 14.5%
Structure (SMILES) = Nc1ccn([C@@H]2O[C@H](CO)[C@@H](O)C2(F)F)c(=O)n1; target or system = HEK293; read-out = cell growth or viability; technique = MTT; tested at = 10 µg/mL; time = 24 h; endpoint = viability; result = 10.7%
Structure (SMILES) = CNC(=O)c1cc(Oc2ccc(NC(=O)Nc3ccc(Cl)c(C(F)(F)F)c3)cc2)ccn1; target or system = WI-38; read-out = cell growth or viability; technique = MTT; tested at = 50 µM; time = 24 h; endpoint = viability; result = 17.8%
Structure (SMILES) = Cn1cnc2c1c(=O)n(CC(=O)Nc1c(Cl)cccc1Cl)c(=O)n2C; target or system = NCI-H1975; read-out = cell growth or viability; technique = MTT; tested at = 0.4 µg; endpoint = viability; result = 82.7%

Repeated from above:
Structure (SMILES) = Nc1ccn([C@@H]2O[C@H](CO)[C@@H](O)C2(F)F)c(=O)n1; target or system = HEK293; read-out = cell growth or viability; technique = MTT; tested at = 10 µg/mL; time = 24 h; endpoint = viability; result = 10.7%
Structure (SMILES) = COc1cc(N2CCC(N3CCN(C)CC3)CC2)ccc1Nc1ncc(Cl)c(Nc2ccccc2P(C)(C)=O)n1; target or system = Ba/F3 EML4-ALK; read-out = cell growth or viability; technique = CCK-8; tested at = 1 µM; time = 24 h; endpoint = viability; result = 5% and 4%
